Experimental data pooled from the literature.
Protocols differ between the studies behind these lines. ± marks the error that the study gave.
Sample: plasma

| Compound | species | route | dose | time | notes | added | AUC(0-inf) [ng·h/mL] |
| --- | --- | --- | --- | --- | --- | --- | --- |
| CONC(=O)/C=C/c1cccc(S(=O)(=O)Nc2ccccc2)c1 | patients with severe liver dysfunction | intravenous | 400 mg/m^2 belinostat | – | single 30 min infusion, cycle 1 day -7, mean | – | 15500 |
| NC(=O)c1cnc2[nH]ccc2c1NC1C2CC3CC1CC(OS(=O)(=O)O)(C3)C2 (stereo not drawn) | Japanese adults, normal hepatic function | oral | 150 mg single dose | – | fasting | – | 2710 |
| CC(C)(Sc1ccncc1-c1ccc(C#N)c2ccccc12)C(=O)OC1OC(C(=O)O)C(O)C(O)C1O (stereo not drawn) | – | oral | 15 mg | – | severe renal impairment, fasted | – | 969 |
| NC(=O)/C=C/c1cccc(S(=O)(=O)Nc2ccccc2)c1 | patients with mild liver dysfunction | intravenous | 400 mg/m^2 belinostat | – | single 30 min infusion, cycle 1 day -7, mean | – | 14000 |
| CC(C)(Sc1cc[n+]([O-])cc1-c1ccc(C#N)c2ccccc12)C(=O)OC1OC(C(=O)O)C(O)C(O)C1O (stereo not drawn) | – | oral | 15 mg | – | mild renal impairment, fasted | – | 339 |
| COc1cc(C)c(Cc2ccc(O)cc2)cc1[C@@H]1S[C@H](CO)[C@@H](O)[C@H](O)[C@H]1O | Japanese T2DM patients | – | 1 mg luseogliflozin | day 1 | once daily | – | 62.7 ± 10.5 |
| CC(C)[C@H](NC(=O)CNC(=O)[C@H](CCC(N)=O)NC(=O)[C@H](C)N)C(=O)O | healthy volunteers, LPS endotoxaemia | intravenous | 15 mg/kg/h | 2 h infusion | geometric mean | LPS 2 ng/kg | 3350 |
| CCCC[C@H](NC(=O)[C@H](CC(C)C)N(C)C(=O)CNC(=O)[C@@H](NC(=O)[C@H](Cc1ccccc1)NC(=O)[C@H](CCCCN)NC(=O)[C@@H](N)CC(=O)O)C(C)C)C(N)=O | Göttingen minipig | subcutaneous | 100 µg/kg | – | – | – | 29.8 |
| Cn1cc(C(N)=O)c(NC2C3CC4CC2CC(O)(C4)C3)c2ccnc1-2 (stereo not drawn) | Japanese adults, mild hepatic impairment | oral | 150 mg single dose | – | fasting, Child-Pugh A | – | 572 |
| CN1CCN(c2cc(-c3ccccc3CO)c(N(C)C(=O)C(C)(C)c3cc(C(F)(F)F)cc(C(F)(F)F)c3)cn2)CC1 | healthy volunteers | oral | dose not given | – | – | – | 4050 to 5840 |
| O=C(O)/C=C/c1cccc(S(=O)(=O)Nc2ccccc2)c1 | patients with mild liver dysfunction | intravenous | 400 mg/m^2 belinostat | – | single 30 min infusion, cycle 1 day -7, mean | – | 6600 |
| Cc1ccccc1-c1cc(N2CCNCC2)ncc1N(C)C(=O)C(C)(C)c1cc(C(F)(F)F)cc(C(F)(F)F)c1 | cancer patients | oral | dose not given | – | netupitant-palonosetron single dose, range of means | – | 4200 to 5990 |
| O=C(O)c1cccc(S(=O)(=O)Nc2ccccc2)c1 | patients with severe liver dysfunction | intravenous | 400 mg/m^2 belinostat | – | single 30 min infusion, cycle 1 day -7, mean | – | 16200 |
| Cc1ccccc1-c1cc(N2CC[N+](C)([O-])CC2)ncc1N(C)C(=O)C(C)(C)c1cc(C(F)(F)F)cc(C(F)(F)F)c1 | healthy volunteers | oral | dose not given | – | netupitant-palonosetron, standard dissolution capsule | – | 1710 |
| Cn1cc(C(N)=O)c(NC2C3CC4CC2CC(OS(=O)(=O)O)(C4)C3)c2ccnc1-2 (stereo not drawn) | Japanese adults, normal hepatic function | oral | 150 mg single dose | – | fasting | – | 372 |

Excerpt of the above:
| Compound | species | route | dose | time | notes | added | AUC(0-inf) [ng·h/mL] |
| --- | --- | --- | --- | --- | --- | --- | --- |
| COc1cc(C)c(Cc2ccc(O)cc2)cc1[C@@H]1S[C@H](CO)[C@@H](O)[C@H](O)[C@H]1O | Japanese T2DM patients | – | 1 mg luseogliflozin | day 1 | once daily | – | 62.7 ± 10.5 |
